Assay results of several laboratories.
Lines come from different studies, so protocols differ.
Organism: Candida albicans

`CCCCCCn1ccc([C@H](C)[C@](O)(Cn2cnnn2)c2ccc(F)cc2F)n1` gave an MIC of less than 0.008 µg/mL (growth, broth microdilution; SC5314; 24 h, 30 °C, ≥50% inhibition).
`C/C(=N\NC1=NC(=O)CS1)c1ccc2c(c1)sc1nc(=O)c(C#N)cn12` gave an MIC of less than 218 µg/mL (broth microdilution).
For `O=c1c2ccccc2sn1-c1cc(Br)cc(Br)c1`, the MIC was 6.25 µg/mL (growth, broth dilution; ATCC 90819 (resistant); MIC-0).
`CCCSC1COC(=O)N1/N=C/c1ccc([N+](=O)[O-])o1` (stereo not shown) gave an MIC of greater than 50 µg/mL (microbial growth, broth dilution; ATCC14053; 18 h).
`C[C@@H](c1ccn(Cc2cc(F)c(F)c(F)c2)n1)[C@](O)(Cn1cnnn1)c1ccc(F)cc1F` has an MIC of 0.016 µg/mL (growth, broth microdilution; SC5314; 24 h, 30 °C, ≥50% inhibition).
`CN(Cc1cc(C2CC2)on1)C(=O)c1cccc(-c2ccc3c(c2)CCO3)c1` has an MIC of greater than 64 µg/mL (microbial growth, broth dilution; SC5314).
`CC(C)c1ccc(Cn2ccc([C@H](C)[C@](O)(Cn3cnnn3)c3ccc(F)cc3F)n2)cc1` has an MIC of less than 0.008 µg/mL (CLSI broth microdilution; SC5314; 24 h).
For `O=C1OCC(SCc2ccccc2)N1/N=C/c1ccc([N+](=O)[O-])o1` (stereo not shown), the MIC was greater than 50 µg/mL (microbial growth, broth dilution; ATCC14053; 18 h).
With `CC(=NNC(=N)N)c1nnn(-c2ccc(C#CC3(O)CCCCC3)cc2)c1C` the MIC was 4 µg/mL (microbial growth, broth dilution).
For `C[C@@H](c1ccn(Cc2ccc(F)c(Cl)c2)n1)[C@](O)(Cn1cnnn1)c1ccc(F)cc1F`, the MIC was less than 0.008 µg/mL (growth, broth microdilution; SC5314; 24 h, 30 °C, ≥50% inhibition).
For `Oc1c(Cl)cc(Cl)c2cccnc12`, the MIC was 37.4 µM (microbial growth, agar dilution; ATCC90028).
`C/C(=N/NC(=N)N)c1nnn(-c2ccc(C#CC(C)(C)C)cc2)c1C` has an MIC of 4 µg/mL (microbial growth, broth dilution).
For `CCCCCCCCCCCCCCCCCCCCCCCCCCCCCCOC(=O)/C=C/c1ccc(O)cc1`, the MIC was 500 µg/mL (NR-29450; 48 h, 37 °C).
For `Oc1c(Br)ccc2cccnc12`, the MIC was 35.7 µM (microbial growth, agar dilution; ATCC90028).
For `CCn1cc(C(=O)NCCNCCO)c(=O)c2cc(OC)c(OCc3cccc(Br)c3)cc21`, the MIC was greater than 32 µg/mL (ATCC 90028; ≥80% growth inhibition).
With `C=CCC1COC(=O)N1/N=C/c1ccc([N+](=O)[O-])o1` (stereo not shown) the MIC was greater than 50 µg/mL (microbial growth, broth dilution; ATCC14053; 18 h).
`CC(=O)c1ccc2c(c1)sc1nc(=O)c(C#N)cn12` gave an MIC of less than 213 µg/mL (microbial growth, broth dilution).
The MIC of `O=C1OCC(O)N1/N=C/c1ccc([N+](=O)[O-])o1` (stereo not shown) is reported as greater than 50 µg/mL (microbial growth, broth dilution; ATCC14053; 18 h).
`COc1ccc2c(c1CC=C(C)C)O[C@H]1c3cc(CC=C(C)C)c(O)cc3OC[C@@H]21` has an MIC of 128 µg/mL (ATCC 10231).
`C/C(=N\Nc1nc(-c2ccc(Cl)cc2)cs1)c1ccc2c(c1)sc1nc(=O)c(C#N)cn12` has an MIC of less than 207 µg/mL (microbial growth, broth dilution).
`CCC(O)CC#Cc1ccc(-n2nnc(/C(C)=N\NC(=N)N)c2C)cc1` (stereo not shown) gave an MIC of greater than 64 µg/mL (microbial growth, broth dilution).
For `O=C1NC(=O)N(/N=C/c2ccc([N+](=O)[O-])o2)C1O` (stereo not shown), the MIC was greater than 50 µg/mL (microbial growth, broth dilution; ATCC14053; 18 h).
`COc1c(CC=C(C)C)c(O)cc2c1[C@@H]1Oc3c(ccc(O)c3CC=C(C)C)[C@@H]1CO2` gave an MIC of 128 µg/mL (ATCC 10231).
With `O=C1OCC(NCCc2ccc(Cl)cc2)N1/N=C/c1ccc([N+](=O)[O-])o1` (stereo not shown) the MIC was greater than 50 µg/mL (microbial growth, broth dilution; ATCC14053; 18 h).
`COC(=O)[C@]1(O)C[C@@H](O)[C@@H](O)[C@H](OC(=O)/C=C/c2ccc(O)c(O)c2)C1` gave an MIC of 37.5 µM (microbial growth, broth dilution; 48 h).
The MIC of `O=C(NCCNCCO)c1cn(Cc2ccc(F)cc2)c2cc(Cl)c(OCc3ccc(C(F)(F)F)cc3)cc2c1=O` is reported as greater than 32 µg/mL (ATCC 90028; ≥80% growth inhibition).
`C[C@@H](c1ccn(Cc2cc(F)ccc2F)n1)[C@](O)(Cn1cnnn1)c1ccc(F)cc1F` has an MIC of 0.032 µg/mL (growth, broth microdilution; SC5314; 24 h, 30 °C, ≥50% inhibition).
`CCn1cc(C(=O)NCCNCCO)c(=O)c2cc(OC)c(OCc3cccc(F)c3)cc21` has an MIC of greater than 32 µg/mL (ATCC 90028; ≥80% growth inhibition).
With `C/C(=N\Nc1nc(C)cs1)c1ccc2c(c1)sc1nc(=O)c(C#N)cn12` the MIC was less than 241 µg/mL (microbial growth, broth dilution).
The MIC of `COc1ccc(N2C(=O)C=CC2=O)cc1` is reported as 2 µg/mL (broth microdilution; CA10, azole multi-resistant).
`C/C(=N\NC(N)=S)c1ccc2c(c1)sc1nc(=O)c(C#N)cn12` gave an MIC of less than 210 µg/mL (broth microdilution).
`CCSC1COC(=O)N1/N=C/c1ccc([N+](=O)[O-])o1` (stereo not shown) has an MIC of greater than 50 µg/mL (microbial growth, broth dilution; ATCC14053; 18 h).
For `COC(=O)C1=COC(OC2OC(CO)C(O)C(O)C2O)C2C1C(OC(C)=O)CC2(C)O` (stereo not shown), the MIC was 100 µM (microbial growth, disc diffusion).
`C[C@@H](c1ccn(Cc2ccc(I)cc2)n1)[C@](O)(Cn1cnnn1)c1ccc(F)cc1F` has an MIC of less than 0.008 µg/mL (growth, broth microdilution; SC5314; 24 h, 30 °C, ≥50% inhibition).
`CSC1COC(=O)N1/N=C/c1ccc([N+](=O)[O-])o1` (stereo not shown) has an MIC of greater than 50 µg/mL (microbial growth, broth dilution; ATCC14053; 18 h).
With `COc1ccc(-c2csc(N/N=C(\C)c3ccc4c(c3)sc3nc(=O)c(C#N)cn34)n2)cc1` the MIC was less than 192 µg/mL (broth microdilution).
With `C[C@@H](c1ccn(Cc2ccc(Cl)cc2Cl)n1)[C@](O)(Cn1cnnn1)c1ccc(F)cc1F` the MIC was less than 0.008 µg/mL (growth, broth microdilution; SC5314; 24 h, 30 °C, ≥50% inhibition).
For `C/C(=N\Nc1nc(-c2ccccc2)cs1)c1ccc2c(c1)sc1nc(=O)c(C#N)cn12`, the MIC was less than 238 µg/mL (broth microdilution).
The MIC of `C[C@@H](c1ccn(Cc2ccc(F)cc2)n1)[C@](O)(Cn1cnnn1)c1ccc(F)cc1F` is reported as less than 0.008 µg/mL (growth, broth microdilution; SC5314; 24 h, 30 °C, ≥50% inhibition).
With `CCCCCCCCCC1CC2CCC3CC(CCCCCCCCC)NC(=N1)N23` (stereo not shown) the MIC was 5.99 µM (fungal growth; ATCC 90028).

Repeated from above:
`COC(=O)[C@]1(O)C[C@@H](O)[C@@H](O)[C@H](OC(=O)/C=C/c2ccc(O)c(O)c2)C1` gave an MIC of 37.5 µM (microbial growth, broth dilution; 48 h).
The MIC of `O=C(NCCNCCO)c1cn(Cc2ccc(F)cc2)c2cc(Cl)c(OCc3ccc(C(F)(F)F)cc3)cc2c1=O` is reported as greater than 32 µg/mL (ATCC 90028; ≥80% growth inhibition).
`C[C@@H](c1ccn(Cc2cc(F)ccc2F)n1)[C@](O)(Cn1cnnn1)c1ccc(F)cc1F` has an MIC of 0.032 µg/mL (growth, broth microdilution; SC5314; 24 h, 30 °C, ≥50% inhibition).
`CCn1cc(C(=O)NCCNCCO)c(=O)c2cc(OC)c(OCc3cccc(F)c3)cc21` has an MIC of greater than 32 µg/mL (ATCC 90028; ≥80% growth inhibition).
With `C/C(=N\Nc1nc(C)cs1)c1ccc2c(c1)sc1nc(=O)c(C#N)cn12` the MIC was less than 241 µg/mL (microbial growth, broth dilution).
The MIC of `COc1ccc(N2C(=O)C=CC2=O)cc1` is reported as 2 µg/mL (broth microdilution; CA10, azole multi-resistant).
`C/C(=N\NC(N)=S)c1ccc2c(c1)sc1nc(=O)c(C#N)cn12` gave an MIC of less than 210 µg/mL (broth microdilution).
